Assay results pooled from the literature.
Compare with care: the assays were run in different laboratories. Several values in a cell are separate wells, animals, samples, runs or records. ± marks the error that the study gave. Where no end group is shown, it is not given here. The star is where a group is joined.
Chain of UniProt O43614 (whole entry, unmodified, looked up): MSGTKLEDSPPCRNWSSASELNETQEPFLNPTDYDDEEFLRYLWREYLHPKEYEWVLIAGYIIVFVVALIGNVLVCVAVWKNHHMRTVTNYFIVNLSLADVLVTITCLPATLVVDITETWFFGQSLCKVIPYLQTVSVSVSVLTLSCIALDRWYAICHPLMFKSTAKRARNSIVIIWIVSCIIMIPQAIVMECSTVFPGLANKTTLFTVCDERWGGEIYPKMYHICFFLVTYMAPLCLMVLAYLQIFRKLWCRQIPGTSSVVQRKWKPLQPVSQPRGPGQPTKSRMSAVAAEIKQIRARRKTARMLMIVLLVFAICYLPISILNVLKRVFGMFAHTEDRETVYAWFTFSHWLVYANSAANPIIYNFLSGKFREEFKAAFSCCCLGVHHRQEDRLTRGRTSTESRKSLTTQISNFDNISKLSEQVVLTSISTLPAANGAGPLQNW
Chain of UniProt Q01959 (whole entry, looked up): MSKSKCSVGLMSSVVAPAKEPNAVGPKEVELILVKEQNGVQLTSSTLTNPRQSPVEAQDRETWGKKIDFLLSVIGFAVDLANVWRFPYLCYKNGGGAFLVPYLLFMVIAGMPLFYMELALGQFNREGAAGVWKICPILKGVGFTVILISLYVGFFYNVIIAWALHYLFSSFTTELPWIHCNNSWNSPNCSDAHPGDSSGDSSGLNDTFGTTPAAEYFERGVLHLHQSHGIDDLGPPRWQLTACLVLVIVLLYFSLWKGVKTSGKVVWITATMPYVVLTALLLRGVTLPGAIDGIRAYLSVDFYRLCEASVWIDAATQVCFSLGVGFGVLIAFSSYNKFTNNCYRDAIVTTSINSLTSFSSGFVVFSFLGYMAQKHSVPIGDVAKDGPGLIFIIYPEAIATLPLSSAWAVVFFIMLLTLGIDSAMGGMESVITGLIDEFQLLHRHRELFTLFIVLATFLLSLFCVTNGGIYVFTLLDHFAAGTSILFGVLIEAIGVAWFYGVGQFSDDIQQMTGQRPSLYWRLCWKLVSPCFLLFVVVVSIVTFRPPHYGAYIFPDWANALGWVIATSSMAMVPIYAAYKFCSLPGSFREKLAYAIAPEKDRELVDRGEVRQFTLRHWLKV
Chain of UniProt P41586 (whole entry, unmodified, looked up): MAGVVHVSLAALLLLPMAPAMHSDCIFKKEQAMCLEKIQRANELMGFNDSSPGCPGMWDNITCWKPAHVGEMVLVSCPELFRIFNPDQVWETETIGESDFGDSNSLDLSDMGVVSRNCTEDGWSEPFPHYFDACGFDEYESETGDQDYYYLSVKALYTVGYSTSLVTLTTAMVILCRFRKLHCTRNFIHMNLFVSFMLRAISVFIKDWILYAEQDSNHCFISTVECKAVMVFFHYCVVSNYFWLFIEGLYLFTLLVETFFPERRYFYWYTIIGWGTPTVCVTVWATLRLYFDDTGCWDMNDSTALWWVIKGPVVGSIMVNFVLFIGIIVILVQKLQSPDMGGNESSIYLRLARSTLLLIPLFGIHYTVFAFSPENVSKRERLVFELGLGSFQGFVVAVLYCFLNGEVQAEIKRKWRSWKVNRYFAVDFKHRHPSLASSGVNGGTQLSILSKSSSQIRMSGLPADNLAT
Chain of UniProt P18507 (whole entry, looked up): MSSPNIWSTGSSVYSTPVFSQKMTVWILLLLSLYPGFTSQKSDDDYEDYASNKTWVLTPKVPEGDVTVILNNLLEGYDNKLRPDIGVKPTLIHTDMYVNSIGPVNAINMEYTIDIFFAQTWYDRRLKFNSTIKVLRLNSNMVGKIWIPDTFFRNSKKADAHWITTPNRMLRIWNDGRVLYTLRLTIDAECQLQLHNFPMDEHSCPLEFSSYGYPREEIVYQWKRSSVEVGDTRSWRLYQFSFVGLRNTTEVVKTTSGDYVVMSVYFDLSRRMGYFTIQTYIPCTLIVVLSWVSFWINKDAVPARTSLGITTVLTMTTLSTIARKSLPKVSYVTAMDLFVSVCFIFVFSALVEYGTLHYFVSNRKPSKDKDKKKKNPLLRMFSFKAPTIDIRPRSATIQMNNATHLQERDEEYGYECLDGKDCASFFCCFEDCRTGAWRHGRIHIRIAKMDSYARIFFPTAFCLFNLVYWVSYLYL
Chain of UniProt P14780 (whole entry, looked up): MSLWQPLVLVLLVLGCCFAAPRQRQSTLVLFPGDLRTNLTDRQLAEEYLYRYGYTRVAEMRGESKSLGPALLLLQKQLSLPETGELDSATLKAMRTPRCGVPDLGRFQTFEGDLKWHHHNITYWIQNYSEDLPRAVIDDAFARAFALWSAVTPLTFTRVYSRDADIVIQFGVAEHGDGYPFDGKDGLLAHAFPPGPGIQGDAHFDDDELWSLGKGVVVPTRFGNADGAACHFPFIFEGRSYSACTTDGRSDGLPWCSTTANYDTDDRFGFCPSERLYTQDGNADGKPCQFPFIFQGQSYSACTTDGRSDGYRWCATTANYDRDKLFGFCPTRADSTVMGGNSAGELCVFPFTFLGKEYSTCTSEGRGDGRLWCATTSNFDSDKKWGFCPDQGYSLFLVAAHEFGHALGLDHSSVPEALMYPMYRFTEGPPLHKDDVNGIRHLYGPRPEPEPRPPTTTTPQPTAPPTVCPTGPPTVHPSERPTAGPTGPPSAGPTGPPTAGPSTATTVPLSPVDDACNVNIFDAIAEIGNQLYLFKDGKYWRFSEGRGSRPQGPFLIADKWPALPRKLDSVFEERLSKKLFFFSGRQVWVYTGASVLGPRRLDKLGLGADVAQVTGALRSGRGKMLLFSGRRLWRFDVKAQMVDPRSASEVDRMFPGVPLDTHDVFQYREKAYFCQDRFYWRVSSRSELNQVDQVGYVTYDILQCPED
Chain of UniProt P14867 (whole entry, looked up): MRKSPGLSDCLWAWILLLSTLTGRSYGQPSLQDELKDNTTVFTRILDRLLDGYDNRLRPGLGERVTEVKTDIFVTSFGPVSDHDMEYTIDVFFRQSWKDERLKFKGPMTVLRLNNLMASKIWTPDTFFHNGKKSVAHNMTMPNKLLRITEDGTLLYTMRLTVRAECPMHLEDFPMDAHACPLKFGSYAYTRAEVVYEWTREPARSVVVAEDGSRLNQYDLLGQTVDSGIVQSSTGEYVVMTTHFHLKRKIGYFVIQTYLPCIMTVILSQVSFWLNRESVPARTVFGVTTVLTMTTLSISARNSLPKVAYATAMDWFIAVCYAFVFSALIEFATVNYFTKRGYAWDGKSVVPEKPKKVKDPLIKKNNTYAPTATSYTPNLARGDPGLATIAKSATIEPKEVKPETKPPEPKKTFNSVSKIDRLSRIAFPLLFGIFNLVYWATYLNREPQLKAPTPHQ
Chain of UniProt P06241 (whole entry, looked up): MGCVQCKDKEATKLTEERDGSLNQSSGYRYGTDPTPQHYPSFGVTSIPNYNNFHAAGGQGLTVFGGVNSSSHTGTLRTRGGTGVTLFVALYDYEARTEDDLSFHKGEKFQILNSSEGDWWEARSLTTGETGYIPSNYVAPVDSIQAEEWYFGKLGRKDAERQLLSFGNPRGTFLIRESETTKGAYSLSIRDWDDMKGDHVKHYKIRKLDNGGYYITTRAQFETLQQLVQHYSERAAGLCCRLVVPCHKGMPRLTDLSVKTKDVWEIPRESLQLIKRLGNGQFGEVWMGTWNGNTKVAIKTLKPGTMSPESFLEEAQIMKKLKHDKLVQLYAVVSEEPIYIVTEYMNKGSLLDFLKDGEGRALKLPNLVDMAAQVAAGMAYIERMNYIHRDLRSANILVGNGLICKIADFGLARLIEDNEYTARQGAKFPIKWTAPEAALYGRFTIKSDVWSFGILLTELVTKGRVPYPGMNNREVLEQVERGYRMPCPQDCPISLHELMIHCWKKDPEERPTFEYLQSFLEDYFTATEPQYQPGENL
Chain of UniProt P47870 (whole entry, looked up): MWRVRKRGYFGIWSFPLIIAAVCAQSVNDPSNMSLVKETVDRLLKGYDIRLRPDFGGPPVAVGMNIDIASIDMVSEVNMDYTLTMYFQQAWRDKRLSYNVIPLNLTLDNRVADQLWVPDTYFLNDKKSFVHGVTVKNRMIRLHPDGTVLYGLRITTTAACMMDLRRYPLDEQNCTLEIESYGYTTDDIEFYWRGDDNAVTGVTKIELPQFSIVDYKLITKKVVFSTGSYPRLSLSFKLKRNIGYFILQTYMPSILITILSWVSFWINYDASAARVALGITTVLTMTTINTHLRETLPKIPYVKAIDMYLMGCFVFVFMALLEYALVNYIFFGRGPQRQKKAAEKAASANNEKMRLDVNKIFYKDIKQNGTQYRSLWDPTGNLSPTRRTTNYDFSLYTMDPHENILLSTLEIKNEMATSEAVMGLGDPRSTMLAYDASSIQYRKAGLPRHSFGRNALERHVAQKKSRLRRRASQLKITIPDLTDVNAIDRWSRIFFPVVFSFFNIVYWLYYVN
Chain of UniProt P34897 (whole entry, unmodified, looked up): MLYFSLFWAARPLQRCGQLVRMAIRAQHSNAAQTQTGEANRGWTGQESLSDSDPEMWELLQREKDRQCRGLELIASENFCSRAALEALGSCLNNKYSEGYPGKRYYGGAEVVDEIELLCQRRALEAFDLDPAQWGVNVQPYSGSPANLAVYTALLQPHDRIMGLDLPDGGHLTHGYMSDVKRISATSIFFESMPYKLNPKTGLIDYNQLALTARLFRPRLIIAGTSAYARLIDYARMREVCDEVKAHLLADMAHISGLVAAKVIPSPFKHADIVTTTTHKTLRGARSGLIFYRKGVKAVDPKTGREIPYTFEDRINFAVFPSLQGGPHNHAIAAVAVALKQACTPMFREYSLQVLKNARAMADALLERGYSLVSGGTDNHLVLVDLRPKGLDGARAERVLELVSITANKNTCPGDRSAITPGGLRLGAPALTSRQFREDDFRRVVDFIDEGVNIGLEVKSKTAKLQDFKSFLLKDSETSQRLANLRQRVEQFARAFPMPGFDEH

Substance | target or system | test | system | setting | how to read | endpoint | result
ibogaine | SLC6A3 (Homo sapiens, UniProt Q01959) | transporter current, inhibitor, electrophysiology | human DAT-expressing cells | current recovery, together with: dopamine 30 µM | – | koff | 0.897 s⁻¹
heparin sodium | – | – | healthy Chinese adult volunteers | continuous intravenous infusion, 8 IU/kg/h, 5 days | – | injection site erythema swelling | 0%
Picrotoxin | GABA-A receptor; alpha-1/beta-2/gamma-2 (Homo sapiens, UniProt P14867+P18507+P47870) | receptor activity, antagonist, FLIPR membrane potential | CHO cells | – | – | IC50 | 3.8 µM
Tunicamycin | HEK293 expressing GLuc | luminescence | – | unit not given | relative to: mock | Gaussia luciferase secretion | 0.498
aspterric acid | – | root length | Arabidopsis thaliana Col-0 seeds | 12.5 µg/mL | – | inhibition | 99.2%
Polymyxin B | – | – | mouse | intraperitoneal, 20 mg/kg single dose, day 1 | – | survival | 100%
PAALVAC(Mca) (Mca-labelled; Mca = COc1ccc2c(CC(=O)*)cc(=O)oc2c1) | MMP9 (Homo sapiens, UniProt P14780) | substrate, fluorescence | – | – | – | substrate release rate constant | 0.00484 h⁻¹
Met-enkephalin | rat neuron-specific aminopeptidase (NAP) | substrate | – | – | – | Km | 95 µM
(−)-cocaine | Sodium channel protein type 4 alpha, BTX-activated (Oryctolagus cuniculus, UniProt G1SLL9) | – | rabbit | concentration not given | – | on-rate reduction | ~50%
evodiamine | Cholinesterase (BCHE, Homo sapiens, UniProt P06276) | enzyme activity, fluorescence | – | – | – | efficacy | -66.6 ± 19.9%
insulin human | – | item: PDK1 mRNA | uninfected mouse, brain | i.p., dose not given | relative to: PBS | fold change | 0.392
maxadilan | ADCYAP1R1 (Homo sapiens, UniProt P41586, del89-109) | cAMP production, agonist | COS-7 | 37 °C, AUC over 20 min | – | Emax | 69 ± 2%
SFLLRNPNDKYEPF | BPAEC | item: cytosolic Ca2+ | peptide | 100 µM | – | time to new steady-state | ~3 min
nonaarginine | PorA peptide pore | peptide binding, planar bilayer single-channel recording | – | 0.5 µM, pH 7.4, +25 mV, trans side, 150 mM KCl | – | kon | 1.96e+07 ± 2e+06 M⁻¹ s⁻¹
dynorphin | HCRTR2 (Homo sapiens, UniProt O43614, del254-292/I293E/K294R/L160H/M161K/Q254E) | sensor fluorescence, fluorescence imaging | HEK293T | concentration not given, unit not given | relative to: baseline | ΔF/F0 | -0.262 and 0.0768 and -0.678 and -0.763 and 0.0266 and -0.296 and -3.35 and -0.0293
tetrahydrofolate | SHMT2 (Homo sapiens, UniProt P34897, Y105A) | substrate, MTHFD2-coupled NADH fluorescence | – | Y105A mutant, together with: serine 200 mM | – | Km | 484 µM
HVLVMSATRR | – | – | peptide, C57BL/6J mice, male, blood | subcutaneous osmotic pump, 3 mg/kg/day peptide basis, 8 weeks | – | haematocrit | 40.7% and 42.2% and 39.8% and 42.7%
mitragynine | – | substrate | human liver S9 | 10 min, 1 | – | Km | 1.68 µM
DPDPE | – | RP-HPLC | HALO C18 column | 25 µM, acetic acid/methanol, 25 min gradient | – | retention time | 15.3 min
(+)-cyclazocine | Genome polyprotein, NS3 helicase domain (Hepatitis C virus genotype 1b, UniProt Q9WMX2) | NS3 helicase DNA binding, fluorescence, Cy5-dT15 | – | 100 µM | – | inhibition | 0%
Ac-APPIPPPRRKR-NH2 (N-acetyl, C-amide) | Tyrosine-protein kinase Fyn, SH3 domain (FYN, Homo sapiens, UniProt P06241) | binding, FTIR spectroscopy | peptide | 4 mM, pH 7.0, band A, protein complex | – | C–D stretch frequency | 2226.5 ± 0.1 cm⁻¹
